Assay results of several laboratories.
Lines come from different studies, so protocols differ.
Target: Acetylcholinesterase (ACHE, Homo sapiens, UniProt P22303)
UniProt P22303, sequence (whole entry, looked up): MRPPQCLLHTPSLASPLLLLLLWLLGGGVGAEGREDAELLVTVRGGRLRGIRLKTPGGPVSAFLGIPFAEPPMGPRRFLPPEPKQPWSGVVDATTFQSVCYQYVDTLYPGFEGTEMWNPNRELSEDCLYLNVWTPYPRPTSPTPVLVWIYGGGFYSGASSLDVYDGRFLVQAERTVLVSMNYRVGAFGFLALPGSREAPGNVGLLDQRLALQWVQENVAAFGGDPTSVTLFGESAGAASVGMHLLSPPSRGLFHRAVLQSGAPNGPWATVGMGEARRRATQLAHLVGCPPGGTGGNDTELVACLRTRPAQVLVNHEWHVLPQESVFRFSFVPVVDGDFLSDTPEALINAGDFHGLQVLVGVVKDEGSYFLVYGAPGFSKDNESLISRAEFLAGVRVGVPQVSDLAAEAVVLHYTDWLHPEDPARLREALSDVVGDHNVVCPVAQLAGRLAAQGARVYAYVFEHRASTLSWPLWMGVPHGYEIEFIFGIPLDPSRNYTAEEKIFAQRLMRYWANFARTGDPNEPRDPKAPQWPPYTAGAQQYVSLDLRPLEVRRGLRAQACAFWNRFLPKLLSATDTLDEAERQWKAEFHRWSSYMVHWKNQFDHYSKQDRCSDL

For `O=C(NCCCCN1CCN(c2cccc(Cl)c2Cl)CC1)c1cc2ccccc2s1`, IC50 read “inactive” (enzyme activity, inhibitor).
The inhibition of `C=CCN1CC[C@]23c4c5ccc(O)c4O[C@H]2C(=O)CC[C@]3(O)[C@H]1C5` is reported as 4.5% (concentration not given).
The Kis of `O=c1cc(CSc2ccc(N=Cc3ccc(Br)cc3)cc2)occ1O` is reported as 1.81 µM (inhibitor, enzyme kinetics).
`C[C@@H](C1=C(CCN(C)C)Cc2ccccc21)c1ccccn1.O=C(O)/C=C\C(=O)O` — result for IC50: “inactive” (enzyme activity, inhibitor).
The IC50/Cmax ratio of `COc1cc(C(=O)NCc2ccc(OCCN(C)C)cc2)cc(OC)c1OC` is reported as under 10 (relative to: IC50 over human plasma Cmax).
`CCC1=C[C@@H]2CN3CCc4c([nH]c5ccccc45)[C@@](C(=O)OC)(C2)[C@@H]13`: IC50 “inactive” (enzyme activity, inhibitor).
For `C=CC[N+]1([C@H]2C[C@H]3[C@@H]4CC[C@H]5C[C@H](OC(C)=O)[C@@H](N6CCCCC6)C[C@]5(C)[C@H]4CC[C@]3(C)[C@H]2OC(=O)CC)CCCCC1`, the IC50/Cmax ratio was under 10 (relative to: IC50 over human plasma Cmax).
With `O=c1ccc2ccccc2o1` the inhibition was 19.9% (enzyme activity; 10 µM, SafetyScreen44).
`C[C@H]1COCCN1c1nc(NCc2cccnc2C(F)(F)F)c2cccnc2n1` has an IC50 of over 100 µM (binding; CEREP panel).
The inhibition of `CN(C(=O)n1cnc(-c2ccc[n+]([O-])c2)c1)C1CCCCC1` is reported as -3.04% (10 µM).

For quick reference, copied from above:
`C[C@@H](C1=C(CCN(C)C)Cc2ccccc21)c1ccccn1.O=C(O)/C=C\C(=O)O` — result for IC50: “inactive” (enzyme activity, inhibitor).
